Measurements collected from several papers.
Parts stem from different laboratories: compare values within a part only.

Series 1 — method: protein binding microarray; form: double-stranded DNA, one strand shown; medium: in vitro; tested at: not given; reference: not given; reading: higher = stronger binding; quantity: E-score
Target: Histone acetyltransferase KAT6A, both winged helices, GST fusion (KAT6A, Homo sapiens, UniProt Q92794, residues 1-181)
Notes: 8-mer, flanks averaged, mean of 2 arrays, mostly near background
Residues (chain): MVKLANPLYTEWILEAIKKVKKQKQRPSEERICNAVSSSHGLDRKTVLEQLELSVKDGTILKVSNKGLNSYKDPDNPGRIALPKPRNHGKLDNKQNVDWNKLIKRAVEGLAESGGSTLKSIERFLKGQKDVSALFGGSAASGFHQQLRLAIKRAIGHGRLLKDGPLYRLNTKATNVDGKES
CACAAACA: -0.134
GGATGACA: -0.0154
CCTTCAGC: -0.149
CCAAGCCA: -0.142

Series 2 — method: protein-binding microarray; form: double-stranded DNA, one strand shown; medium: in vitro; tested at: 250 nM; notes: 60-bp whole probe; with: salmon DNA 0.4 mg/ml; reference: random background probes; reading: higher = stronger binding; quantity: log fluorescence
Target: Interferon regulatory factor 5, full length, phosphomimetic (IRF5, Homo sapiens, UniProt Q13568-2, residues 1-514, K96S/S451D/S453D/S456D/S462D)
GCCTAGCACGACGTTTTCCTACTGCTGACGTGCTAGGTCTTGATTCGCTTGACGCTGCTG: 0.5 z-score
GCCTAGCACTTAGACCTGGGGTTTCGATTAGTGCTAGTCTTGATTCGCTTGACGCTGCTG: 5.42 z-score
GCCTAGCACTTAGGTAGCGGACTGGGTTAGTGCTAGGTCTTGATTCGCTTGACGCTGCTG: -0.524 z-score

Mixed results
PhoQ, residues 284 288 289 292 302 303 MLMVEA — fold induction (PhoP, residues 12 14 15 18 19 FWNTL (Escherichia coli, UniProt P23836); Sort-seq, refers to: YFP reporter; E. coli; PhoQ-PhoP variant library, with: 10 µM Mg2+; reference: high Mg2+ state, higher = stronger signaling): 17.7
GAATCCAC — E-score (Sal-like protein 4, full length isoform B (SALL4, Homo sapiens, UniProt Q9UJQ4-2, residues 1-616); universal PBM; double-stranded DNA, one strand shown, in vitro; not given, 8-mer, flanks averaged, mean of replicates; higher = stronger binding): -0.0292
TMED10 (Homo sapiens, UniProt P49755) — interaction screen (TMED4 (Homo sapiens, UniProt Q7Z7H5); cross-linking MS; hits only): cross-linked

Excerpt of the above (series 2):
GCCTAGCACTTAGACCTGGGGTTTCGATTAGTGCTAGTCTTGATTCGCTTGACGCTGCTG: 5.42 z-score
